# Results collected from several papers.
# Protocols differ between the studies behind these lines.
# TNK2: Activated CDC42 kinase 1 (TNK2, Homo sapiens, UniProt Q07912)
# UniProt Q07912, sequence (whole entry, looked up): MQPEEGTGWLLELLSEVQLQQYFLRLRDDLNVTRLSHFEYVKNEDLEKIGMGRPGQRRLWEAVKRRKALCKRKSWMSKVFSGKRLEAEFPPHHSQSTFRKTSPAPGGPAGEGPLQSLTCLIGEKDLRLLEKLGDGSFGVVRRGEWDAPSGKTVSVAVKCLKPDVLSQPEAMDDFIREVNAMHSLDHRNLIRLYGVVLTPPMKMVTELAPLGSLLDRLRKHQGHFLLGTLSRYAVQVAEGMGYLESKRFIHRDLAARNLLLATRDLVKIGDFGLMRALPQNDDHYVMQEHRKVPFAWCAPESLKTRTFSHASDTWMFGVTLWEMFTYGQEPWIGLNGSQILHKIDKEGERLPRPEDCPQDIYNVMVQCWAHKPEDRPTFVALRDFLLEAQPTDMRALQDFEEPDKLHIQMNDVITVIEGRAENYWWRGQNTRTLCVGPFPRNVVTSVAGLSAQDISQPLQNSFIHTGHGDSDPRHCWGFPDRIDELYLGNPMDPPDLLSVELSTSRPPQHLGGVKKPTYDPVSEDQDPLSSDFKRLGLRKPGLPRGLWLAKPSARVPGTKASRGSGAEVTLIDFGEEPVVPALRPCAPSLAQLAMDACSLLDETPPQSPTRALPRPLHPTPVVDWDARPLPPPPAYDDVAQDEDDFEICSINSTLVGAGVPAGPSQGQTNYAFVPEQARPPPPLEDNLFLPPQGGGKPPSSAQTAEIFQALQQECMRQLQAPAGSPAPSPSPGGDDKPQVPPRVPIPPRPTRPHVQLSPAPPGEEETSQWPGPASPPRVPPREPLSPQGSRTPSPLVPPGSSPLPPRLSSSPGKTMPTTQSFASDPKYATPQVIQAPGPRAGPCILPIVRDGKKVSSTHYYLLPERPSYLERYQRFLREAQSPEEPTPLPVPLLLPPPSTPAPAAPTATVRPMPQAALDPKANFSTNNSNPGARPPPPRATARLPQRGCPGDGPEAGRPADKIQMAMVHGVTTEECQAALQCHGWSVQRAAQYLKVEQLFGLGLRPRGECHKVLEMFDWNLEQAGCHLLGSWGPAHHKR
# UniProt Q9Y2H9, sequence (whole entry, looked up): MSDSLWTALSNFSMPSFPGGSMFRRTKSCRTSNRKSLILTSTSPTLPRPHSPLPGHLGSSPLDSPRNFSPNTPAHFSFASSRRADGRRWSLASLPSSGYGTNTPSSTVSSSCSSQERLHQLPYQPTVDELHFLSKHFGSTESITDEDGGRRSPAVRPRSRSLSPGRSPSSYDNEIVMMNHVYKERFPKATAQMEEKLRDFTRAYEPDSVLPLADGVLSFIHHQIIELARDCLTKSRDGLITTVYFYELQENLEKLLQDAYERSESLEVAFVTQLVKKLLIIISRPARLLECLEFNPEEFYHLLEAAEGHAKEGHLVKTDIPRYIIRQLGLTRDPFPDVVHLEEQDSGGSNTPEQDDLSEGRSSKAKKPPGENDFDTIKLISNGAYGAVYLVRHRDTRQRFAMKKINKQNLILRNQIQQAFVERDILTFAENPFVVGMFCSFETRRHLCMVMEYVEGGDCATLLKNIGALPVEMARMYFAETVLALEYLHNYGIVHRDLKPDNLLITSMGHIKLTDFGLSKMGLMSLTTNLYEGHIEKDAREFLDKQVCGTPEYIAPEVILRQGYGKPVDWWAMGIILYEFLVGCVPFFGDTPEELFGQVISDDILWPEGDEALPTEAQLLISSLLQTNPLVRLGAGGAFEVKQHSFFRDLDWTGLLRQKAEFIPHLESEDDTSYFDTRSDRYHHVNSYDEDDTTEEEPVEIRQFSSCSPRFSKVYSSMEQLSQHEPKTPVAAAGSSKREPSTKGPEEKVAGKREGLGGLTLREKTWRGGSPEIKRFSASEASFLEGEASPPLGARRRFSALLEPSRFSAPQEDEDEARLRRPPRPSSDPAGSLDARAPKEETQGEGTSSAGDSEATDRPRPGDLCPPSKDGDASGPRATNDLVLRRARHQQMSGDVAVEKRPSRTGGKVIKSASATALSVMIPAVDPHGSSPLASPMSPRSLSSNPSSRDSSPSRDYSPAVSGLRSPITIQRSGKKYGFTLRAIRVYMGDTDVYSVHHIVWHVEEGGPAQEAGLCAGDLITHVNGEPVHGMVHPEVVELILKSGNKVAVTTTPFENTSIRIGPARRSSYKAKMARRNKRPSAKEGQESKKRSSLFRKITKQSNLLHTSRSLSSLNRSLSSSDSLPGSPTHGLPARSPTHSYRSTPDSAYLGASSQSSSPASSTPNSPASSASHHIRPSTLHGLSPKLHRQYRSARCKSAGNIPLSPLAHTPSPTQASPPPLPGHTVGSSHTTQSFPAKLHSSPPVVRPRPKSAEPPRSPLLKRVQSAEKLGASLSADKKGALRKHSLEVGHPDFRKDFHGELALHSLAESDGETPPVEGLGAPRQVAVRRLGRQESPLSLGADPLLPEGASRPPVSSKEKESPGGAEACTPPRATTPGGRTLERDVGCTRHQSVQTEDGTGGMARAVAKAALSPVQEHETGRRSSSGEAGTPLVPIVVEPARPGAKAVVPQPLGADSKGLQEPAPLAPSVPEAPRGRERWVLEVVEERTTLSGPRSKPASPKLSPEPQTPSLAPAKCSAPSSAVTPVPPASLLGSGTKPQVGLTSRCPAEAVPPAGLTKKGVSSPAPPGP
# UniProt P15735, sequence (whole entry, looked up): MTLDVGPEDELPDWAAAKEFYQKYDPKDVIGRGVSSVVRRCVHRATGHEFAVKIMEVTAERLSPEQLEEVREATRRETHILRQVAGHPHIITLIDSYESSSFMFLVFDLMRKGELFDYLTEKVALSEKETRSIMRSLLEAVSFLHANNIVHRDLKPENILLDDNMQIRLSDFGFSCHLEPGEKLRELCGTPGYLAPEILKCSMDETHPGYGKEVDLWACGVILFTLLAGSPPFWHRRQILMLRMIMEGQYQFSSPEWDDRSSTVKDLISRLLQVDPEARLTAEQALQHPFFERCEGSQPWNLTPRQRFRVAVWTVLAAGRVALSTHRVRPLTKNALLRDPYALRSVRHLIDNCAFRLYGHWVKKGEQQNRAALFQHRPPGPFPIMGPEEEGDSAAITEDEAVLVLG
# UniProt Q8TF76, sequence (whole entry, looked up): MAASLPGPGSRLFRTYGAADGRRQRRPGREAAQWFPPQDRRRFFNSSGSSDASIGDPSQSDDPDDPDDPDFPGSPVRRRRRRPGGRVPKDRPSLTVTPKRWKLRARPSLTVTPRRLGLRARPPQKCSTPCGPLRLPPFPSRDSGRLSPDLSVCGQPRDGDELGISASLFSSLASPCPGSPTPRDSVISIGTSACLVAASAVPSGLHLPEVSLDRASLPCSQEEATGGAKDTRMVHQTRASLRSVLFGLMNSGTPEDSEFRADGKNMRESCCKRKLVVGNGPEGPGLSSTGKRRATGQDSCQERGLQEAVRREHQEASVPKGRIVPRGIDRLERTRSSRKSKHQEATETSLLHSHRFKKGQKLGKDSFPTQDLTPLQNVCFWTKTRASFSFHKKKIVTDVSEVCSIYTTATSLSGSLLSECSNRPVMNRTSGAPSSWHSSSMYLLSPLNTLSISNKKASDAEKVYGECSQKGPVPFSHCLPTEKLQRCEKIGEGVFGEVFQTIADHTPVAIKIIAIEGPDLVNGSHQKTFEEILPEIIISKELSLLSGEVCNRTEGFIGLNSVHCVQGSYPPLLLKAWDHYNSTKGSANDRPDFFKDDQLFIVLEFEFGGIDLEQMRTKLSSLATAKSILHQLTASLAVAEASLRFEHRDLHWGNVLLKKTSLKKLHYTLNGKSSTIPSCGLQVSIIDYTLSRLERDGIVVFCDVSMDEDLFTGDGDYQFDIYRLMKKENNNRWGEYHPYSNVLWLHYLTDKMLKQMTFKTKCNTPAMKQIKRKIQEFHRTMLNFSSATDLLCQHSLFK
# UniProt P80192, sequence (whole entry, looked up): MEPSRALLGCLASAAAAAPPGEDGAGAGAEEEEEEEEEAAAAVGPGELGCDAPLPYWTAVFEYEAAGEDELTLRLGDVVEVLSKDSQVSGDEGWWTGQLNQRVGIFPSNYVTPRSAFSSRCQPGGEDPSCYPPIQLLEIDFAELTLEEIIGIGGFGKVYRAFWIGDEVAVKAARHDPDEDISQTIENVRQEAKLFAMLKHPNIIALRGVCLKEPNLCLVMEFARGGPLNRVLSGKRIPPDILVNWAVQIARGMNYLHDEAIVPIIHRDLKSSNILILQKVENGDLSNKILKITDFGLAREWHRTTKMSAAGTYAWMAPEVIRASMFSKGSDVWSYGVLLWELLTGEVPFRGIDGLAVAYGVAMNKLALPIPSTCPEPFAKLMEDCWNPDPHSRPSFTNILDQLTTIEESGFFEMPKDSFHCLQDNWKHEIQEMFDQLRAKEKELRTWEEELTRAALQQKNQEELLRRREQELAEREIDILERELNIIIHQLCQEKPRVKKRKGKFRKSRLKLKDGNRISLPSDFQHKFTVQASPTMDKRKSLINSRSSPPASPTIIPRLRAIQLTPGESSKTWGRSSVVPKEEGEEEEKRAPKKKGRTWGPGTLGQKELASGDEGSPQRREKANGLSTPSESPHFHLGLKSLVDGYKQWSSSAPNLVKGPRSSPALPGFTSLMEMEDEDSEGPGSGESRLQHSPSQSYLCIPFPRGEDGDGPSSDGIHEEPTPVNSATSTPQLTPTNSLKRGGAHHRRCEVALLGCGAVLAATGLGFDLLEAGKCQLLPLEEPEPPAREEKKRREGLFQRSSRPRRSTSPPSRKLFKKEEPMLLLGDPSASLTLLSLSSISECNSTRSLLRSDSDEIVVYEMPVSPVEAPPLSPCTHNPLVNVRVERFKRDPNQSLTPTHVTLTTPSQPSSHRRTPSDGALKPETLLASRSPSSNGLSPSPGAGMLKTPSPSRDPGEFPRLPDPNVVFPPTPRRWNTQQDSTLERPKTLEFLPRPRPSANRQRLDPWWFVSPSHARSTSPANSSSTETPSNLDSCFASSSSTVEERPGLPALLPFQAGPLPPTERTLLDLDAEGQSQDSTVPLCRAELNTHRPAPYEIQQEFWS
Structure (SMILES),tested on,observed,mode,method,tested at,quantity,result
C1=C/COCc2cc(ccc2OCCN2CCCC2)Nc2nccc(n2)-c2cccc(c2)COC/1,"Microtubule-associated serine/threonine-protein kinase 1 (MAST1, Homo sapiens, UniProt Q9Y2H9)",binding,,,0.1 µM,remaining binding,77%
COc1cc(-c2cncc3c2CN(C)Cc2cc(N4CCNCC4)ccc2-3)cc(OC)c1OC,TNK2,enzyme activity,inhibitor,,1 µM,remaining activity,77%
Cc1cc(NC(=O)c2cccc(NC(=O)/C=C/CN(C)C)c2)ccc1Nc1nccc(-c2cccnc2)n1,TNK2,binding,,competition with immobilised ligand,1 µM,remaining binding,100%
C=CC(=O)N1CCC(COCC(=O)N2CCN(c3nc(-c4cnc(N)nc4C(F)F)nc(N4CCOC[C@@H]4C)n3)CC2)CC1,"Serine/threonine-protein kinase STK11 (STK11, Homo sapiens, UniProt Q15831)",binding,,competition with immobilised ligand,1 µM,remaining binding,77%
COc1ccc2oc(-c3ccc4nc(N)oc4c3)c/c(=N\c3ccccc3NC(=O)CCN)c2c1,"Serine/threonine-protein kinase haspin (HASPIN, Homo sapiens, UniProt Q8TF76)",binding,,,1 µM,remaining binding,102%
Nc1ncnc2occ(-c3ccc(NC(=O)Nc4cc(C(F)(F)F)ccc4F)cc3)c12,"Epidermal growth factor receptor (EGFR, Homo sapiens, UniProt P00533, del752-759)",cell-free assay,,,20 µM,remaining signal,58%
CCCCC(=O)Nc1ccc(-c2ccc3ncn(CCC)c(=O)c3c2)cn1,"Phosphorylase b kinase gamma catalytic chain, liver/testis isoform (PHKG2, Homo sapiens, UniProt P15735)",binding,,competition with immobilised ligand,0.5 µM,remaining binding,100%
Cc1cc(NS(=O)(=O)c2ccc(N=NN(C)O)cc2)no1,,ABTS scavenging,,,120 µg/mL,inhibition,37.5%
COc1ccnn2ncc(-c3ccnc(N(C)C)n3)c12,"Cyclin-dependent kinase 2 homolog (CRK2, Plasmodium falciparum, UniProt P61075)",binding,,,1 µM,remaining binding,92%
CNc1ncc2c(/C=C/C(=O)N3CCC(OC)CC3)nn(Cc3cccc(C(F)(F)F)c3)c2n1,"Receptor tyrosine-protein kinase erbB-4 (ERBB4, Homo sapiens, UniProt Q15303)",enzyme activity,inhibitor,radiometric,1 µM,remaining activity,94%
FC(F)(F)Oc1cccc(-c2cnc3ccc(-c4ccncc4)nn23)c1,"Serine/threonine-protein kinase 25 (STK25, Homo sapiens, UniProt O00506)",binding,,competition with immobilised ligand,5 µM,remaining binding,77%
Cc1cc(S(=O)(=O)N[C@H]2CC[C@H](CN3CCN(c4ccc(C5CCC(=O)NC5=O)cc4F)CC3)CC2)ccc1Nc1ncc(C(F)(F)F)c(N2CCC[C@](C)(O)C2)n1 (stereo partly drawn),"Serine/threonine-protein kinase 16 (STK16, Homo sapiens, UniProt O75716)",binding,,competition with immobilised ligand,1 µM,remaining binding,59%
Cc1cc([C@@H](C)Nc2ccccc2C(=O)O)c2nc(N3CCC(F)(F)CC3)c(C#N)c(=O)n2c1,"Mitogen-activated protein kinase kinase kinase 9 (MAP3K9, Homo sapiens, UniProt P80192)",binding,,competition with immobilised ligand,1 µM,remaining binding,100%
Cc1cccc(N(O)N=Nc2ccc(S(=O)(=O)Nc3onc(C)c3C)cc2)c1,,ABTS scavenging,,,180 µg/mL,inhibition,54.2%
CNS(=O)(=O)c1ccc(Nc2ncc(C(F)(F)F)c(N3CCC[C@](C)(O)C3)n2)c(C)c1,"Cyclin-dependent kinase 2 (CDK2, Homo sapiens, UniProt P24941)",binding,,competition with immobilised ligand,1 µM,remaining binding,5.3%
